{"sequences": {"note": "Sequences of proteins named here, by UniProt entry; tags and fusion partners are left off. Residues count along the entry.", "UniProt Q9UQM7, whole entry": "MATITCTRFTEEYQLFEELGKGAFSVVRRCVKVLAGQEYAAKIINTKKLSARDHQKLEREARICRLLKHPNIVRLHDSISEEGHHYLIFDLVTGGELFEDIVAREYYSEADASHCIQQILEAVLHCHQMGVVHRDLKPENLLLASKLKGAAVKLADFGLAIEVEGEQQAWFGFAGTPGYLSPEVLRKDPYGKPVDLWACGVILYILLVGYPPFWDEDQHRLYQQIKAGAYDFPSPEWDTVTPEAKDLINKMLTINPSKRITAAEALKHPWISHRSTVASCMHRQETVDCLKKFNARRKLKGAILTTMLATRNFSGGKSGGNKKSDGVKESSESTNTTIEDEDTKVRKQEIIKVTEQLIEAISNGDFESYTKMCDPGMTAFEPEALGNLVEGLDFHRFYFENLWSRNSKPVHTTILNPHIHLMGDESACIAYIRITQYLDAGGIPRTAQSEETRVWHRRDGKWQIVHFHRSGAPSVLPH", "UniProt Q62645, 28-1323 limits assumed": "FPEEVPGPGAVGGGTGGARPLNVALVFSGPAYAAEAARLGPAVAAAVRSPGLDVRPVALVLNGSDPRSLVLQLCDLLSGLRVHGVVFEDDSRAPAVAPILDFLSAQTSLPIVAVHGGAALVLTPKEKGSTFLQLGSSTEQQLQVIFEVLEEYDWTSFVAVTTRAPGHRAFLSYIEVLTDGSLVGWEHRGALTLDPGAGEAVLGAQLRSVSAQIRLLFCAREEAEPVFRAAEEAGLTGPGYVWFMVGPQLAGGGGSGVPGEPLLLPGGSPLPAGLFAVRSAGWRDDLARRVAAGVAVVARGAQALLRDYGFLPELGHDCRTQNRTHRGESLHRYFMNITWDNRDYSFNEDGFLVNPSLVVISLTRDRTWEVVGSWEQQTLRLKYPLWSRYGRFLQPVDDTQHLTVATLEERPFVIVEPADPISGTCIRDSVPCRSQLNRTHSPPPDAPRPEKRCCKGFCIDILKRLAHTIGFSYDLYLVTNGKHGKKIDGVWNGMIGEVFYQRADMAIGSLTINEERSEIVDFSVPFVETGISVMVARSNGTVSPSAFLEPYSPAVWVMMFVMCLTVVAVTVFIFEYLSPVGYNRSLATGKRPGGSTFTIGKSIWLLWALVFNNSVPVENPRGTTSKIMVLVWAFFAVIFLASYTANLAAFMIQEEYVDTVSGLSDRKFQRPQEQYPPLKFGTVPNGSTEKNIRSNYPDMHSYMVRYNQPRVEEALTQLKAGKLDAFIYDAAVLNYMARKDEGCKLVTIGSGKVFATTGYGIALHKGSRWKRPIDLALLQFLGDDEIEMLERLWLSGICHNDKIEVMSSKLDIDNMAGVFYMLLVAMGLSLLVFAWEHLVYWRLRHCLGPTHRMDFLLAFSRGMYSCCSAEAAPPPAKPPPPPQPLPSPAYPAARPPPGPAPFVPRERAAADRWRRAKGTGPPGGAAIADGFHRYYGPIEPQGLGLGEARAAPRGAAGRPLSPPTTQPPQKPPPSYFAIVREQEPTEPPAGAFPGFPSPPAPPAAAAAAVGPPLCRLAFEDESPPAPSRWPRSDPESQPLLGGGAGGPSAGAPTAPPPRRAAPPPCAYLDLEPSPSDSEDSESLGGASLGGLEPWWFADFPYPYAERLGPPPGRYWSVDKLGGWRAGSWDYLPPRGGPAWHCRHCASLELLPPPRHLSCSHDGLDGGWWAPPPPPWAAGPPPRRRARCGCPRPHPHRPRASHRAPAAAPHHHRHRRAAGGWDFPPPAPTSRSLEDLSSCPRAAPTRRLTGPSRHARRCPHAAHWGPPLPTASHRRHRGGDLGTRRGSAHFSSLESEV", "UniProt Q9Y5N1, whole entry": "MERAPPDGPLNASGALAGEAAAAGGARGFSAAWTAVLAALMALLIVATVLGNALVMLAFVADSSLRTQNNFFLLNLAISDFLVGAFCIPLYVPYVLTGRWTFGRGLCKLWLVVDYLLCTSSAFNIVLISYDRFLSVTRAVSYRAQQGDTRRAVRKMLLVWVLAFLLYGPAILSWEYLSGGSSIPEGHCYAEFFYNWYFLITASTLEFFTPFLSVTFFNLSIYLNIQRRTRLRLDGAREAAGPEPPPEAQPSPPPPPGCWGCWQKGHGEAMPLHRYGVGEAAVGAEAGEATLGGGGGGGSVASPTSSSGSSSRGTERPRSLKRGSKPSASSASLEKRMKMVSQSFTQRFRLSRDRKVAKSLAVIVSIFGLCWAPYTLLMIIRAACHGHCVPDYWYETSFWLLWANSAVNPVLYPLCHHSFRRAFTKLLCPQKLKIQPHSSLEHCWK"}, "data": "Assay results pooled from the literature", "note": "Protocols differ between the studies behind these lines. ± marks the error that the study gave."}
{"Molecule": "C[C@H](Cc1ccc(O)c(O)c1)[C@@H](C)Cc1ccc(O)c(O)c1", "test system": "human skin", "conditions": "3% w/v solution", "endpoint": "epidermal retention", "result": "~80%"}
{"Molecule": "C=C[C@@H]1[C@H]2CCC[C@]1(c1cccc(O)c1)CCN2CCc1ccccc1", "test system": "aqueous buffer", "endpoint": "kinetic solubility", "result": "34 µg/mL"}
{"Molecule": "Cc1cc(N(CCOS(C)(=O)=O)CCOS(C)(=O)=O)ccc1C(=O)O", "test": "chemical stability", "test system": "PBS", "conditions": "10 µg/mL", "endpoint": "half-life", "result": "0.0667 h"}
{"Molecule": "CC#C/C(=N\\OC[C@H]1COCCN1)c1ccc2ncnc(Nc3ccc(OCc4cccc(F)c4)c(Cl)c3)c2c1", "target or system": "Calcium/calmodulin-dependent protein kinase type II subunit alpha (CAMK2A, Homo sapiens, UniProt Q9UQM7)", "test": "kinase activity", "conditions": "10 µM", "endpoint": "inhibition", "result": "43.7%"}
{"Molecule": "CC[C@H](C)[C@@H]([C@@H](CC(=O)N1CCC[C@H]1[C@H](OC)[C@@H](C)C(=O)NCCc1ccc(OP(=O)(O)O)cc1)OC)N(C)C(=O)[C@@H](NC(=O)[C@H](C(C)C)N(C)C)C(C)C.NC(CO)(CO)CO", "test system": "distilled water", "conditions": "23 °C", "endpoint": "solubility", "result": "> 51000 µg/mL"}
{"Molecule": "N-methyl-N′-nitro-N-nitrosoguanidine", "test system": "EpiDerm EPI-200-MNA skin tissue", "endpoint": "micronucleus induction", "result": "positive"}
{"Molecule": "N-methyl-N′-nitro-N-nitrosoguanidine", "test system": "Phenion FT skin model", "conditions": "concentration not given", "endpoint": "dose limiting by cytotoxicity", "result": "2 µg/cm²"}
{"Molecule": "CCCCCCCCCCCCCCCC(=O)NCCCC[C@H](NC(=O)CNC(=O)[C@H](CO)NC(=O)CNC(=O)[C@H](CCC(N)=O)NC(=O)[C@H](Cc1c[nH]cn1)NC(=O)[C@H](Cc1c[nH]c2ccccc12)NC(=O)[C@H](CCCCN)NC(=O)CNC(=O)[C@@H](NC(=O)[C@H](CO)NC(=O)[C@H](CCC(=O)O)NC(=O)[C@H](CC(C)C)NC(=O)[C@@H](NC(=O)[C@H](CCCCN)NC(=O)[C@H](CC(N)=O)NC(=O)[C@H](CO)NC(=O)[C@H](CCCNC(=N)N)NC(=O)[C@H](CCCNC(=N)N)NC(=O)[C@@H](NC(=O)[C@H](Cc1c[nH]c2ccccc12)NC(=O)[C@H](CCC(=O)O)NC(=O)[C@H](CCCCN)NC(=O)[C@H](CO)NC(=O)[C@H](CCC(=O)O)NC(=O)[C@H](CCC(=O)O)NC(=O)[C@H](CC(C)C)NC(=O)[C@H](CC(=O)O)NC(=O)[C@H](CCCCN)NC(=O)[C@H](CCCCN)NC(=O)[C@@H](NC(=O)[C@H](CCCCN)NC(=O)[C@H](CCCNC(=N)N)NC(=O)[C@H](CC(C)C)NC(=O)[C@@H](NC(=O)[C@H](CCC(=O)O)NC(=O)[C@H](CO)NC(=O)[C@@H](NC(=O)[C@H](CC(=O)O)NC(=O)[C@@H](NC(=O)[C@@H]1CCCN1C(=O)[C@H](CC(=O)O)NC(=O)[C@H](CC(C)C)NC(=O)[C@H](C)NC(=O)[C@@H](N)C(C)C)[C@@H](C)CC)[C@@H](C)CC)C(C)C)[C@@H](C)CC)[C@@H](C)CC)[C@@H](C)CC)[C@@H](C)CC)C(=O)O", "test system": "water", "endpoint": "solubility", "result": "> 50000 µg/mL"}
{"Molecule": "CCN(CC)C(=O)Oc1ccc(C(=O)Nc2cccc3cc[nH]c23)cc1", "target or system": "Glutamate receptor ionotropic, NMDA 2D, with GluN1 (Rattus norvegicus, UniProt Q62645)", "endpoint": "dissociation rate constant", "result": "0.2 ± 0.01 s⁻¹"}
{"Molecule": "CC[C@@H](C(N)=O)N1CCCC1=O", "test": "LC-MS/MS", "test system": "rat, paraoxon-induced status epilepticus, whole blood", "conditions": "oral, 50 mg/kg levetiracetam, added: atropine 5 mg/kg", "endpoint": "terminal half-life", "result": "1.28 h"}
{"Molecule": "CCOc1ccc2cc(-c3nn(CC4CCN(C)CC4)c4ncnc(N)c34)ccc2n1", "conditions": "concentration not given, dog", "endpoint": "half-life", "result": "> 2 h"}
{"Molecule": "O=C(Nc1ccccc1)c1cc([N+](=O)[O-])ccc1Cl", "test": "LC-MS/MS", "test system": "Sprague-Dawley rat, male, plasma", "conditions": "intravenous, 2.5 mg/kg", "endpoint": "C0", "result": "232 ng/mL"}
{"Molecule": "satraplatin", "test": "toxicity", "test system": "zebrafish larvae", "conditions": "1 to 1000 µM, 24 h, without KCN", "endpoint": "LD100", "result": "not toxic"}
{"Molecule": "C[C@@H]1NC(=O)[C@@H]2CCCN2C(=O)[C@H](CC(N)=O)NC(=O)[C@H](Cc2c[nH]c3ccccc23)NC(=O)[C@@H]2CSSC[C@@H](C(N)=O)NC(=O)[C@H](Cc3ccc(O)cc3)NC(=O)[C@H](Cc3c[nH]cn3)NC(=O)[C@H](CCCCN)NC(=O)CNC(=O)[C@H](CSSC[C@H](NC(=O)CN)C(=O)N2)NC1=O", "test": "RP-HPLC", "test system": "mouse serum 25% in water", "conditions": "50 µM, 24 h, 37 °C", "endpoint": "remaining peptide", "result": "1.44 ± 0.26%"}
{"Molecule": "COC(=O)[C@@]12OC[C@]34[C@H]([C@@H](O)[C@@H]1O)[C@@]1(C)CC(=O)C(OC(=O)CNC(=O)OC(C)(C)C)=C(C)[C@@H]1C[C@H]3OC(=O)[C@H](OC(=O)C=C(C)C)[C@@H]24", "test system": "NOD/SCID mouse, male", "conditions": "intraperitoneal, 5 mg/kg every other day, 24 days", "endpoint": "survival", "result": "50%"}
{"Molecule": "CCCN1CCN(c2ccc3c(c2)C2CC3CCN2C(=O)OCc2ccccc2)CC1 (stereo not drawn)", "target or system": "Histamine H3 receptor (HRH3, Homo sapiens, UniProt Q9Y5N1)", "test": "binding, radioligand binding", "endpoint": "Ki", "result": "644 nM"}
{"Molecule": "CCCCCCC1c2ccc(O)cc2Oc2cc(O)ccc21", "target or system": "Shigella flexneri", "test system": "ATCC 12022", "conditions": "added: NAB7061 4 µg/mL", "endpoint": "MIC", "result": "1.2 µg/mL"}
{"Molecule": "C=C(C)[C@@H]1[C@H]2OC(=O)[C@@H]1[C@]1(O)C[C@H]3O[C@]34C(=O)O[C@H]2[C@]14C", "test system": "male NIH-NCI Swiss mice", "conditions": "intraperitoneal, 2 mg/kg, Racine score 3 to 5", "endpoint": "mice with seizures", "result": "75%"}
{"Molecule": "CSc1nc(Cl)cc(Sc2nnc(-c3cc(C(F)(F)F)cc(C(F)(F)F)c3)[nH]2)n1", "target or system": "Escherichia coli", "test system": "NR698", "conditions": "no additive", "endpoint": "MIC", "result": "1.8 µg/mL"}
{"Molecule": "CCN1CCN(Cc2ccc(NC(=O)c3ccc(C)c(/C=C/c4cnc5[nH]ccc5c4OC)c3)cc2C(F)(F)F)CC1", "target or system": "TPR-MET fusion", "test": "kinase-CDC37 interaction, cell-based kinome screen", "conditions": "5 µM", "how to read": "baseline: vehicle", "endpoint": "log2 fold change", "result": -0.143}
{"Molecule": "O=C(O)c1cc(-c2ccc(-c3cc(CO)on3)cc2)c2ccc(-c3ccc(C(F)(F)F)cc3)cc2c1", "test system": "rat Wistar male", "conditions": "intraperitoneal, 10 mg/kg, 24 h", "endpoint": "MRT(0-t)", "result": "5.02 h"}
{"Molecule": "CCCCCCCCCCCCCCCC(=O)NCCCC[C@H](NC(=O)CNC(=O)[C@H](CO)NC(=O)CNC(=O)[C@@H](NC(=O)[C@@H](NC(=O)[C@@H](NC(=O)[C@H](CO)NC(=O)[C@H](CO)NC(=O)[C@H](CCC(N)=O)NC(=O)[C@H](Cc1c[nH]cn1)NC(=O)[C@H](Cc1c[nH]c2ccccc12)NC(=O)[C@H](CC(N)=O)NC(=O)CNC(=O)[C@@H](NC(=O)[C@H](CO)NC(=O)[C@H](CC(=O)O)NC(=O)[C@H](CC(C)C)NC(=O)[C@@H](NC(=O)[C@H](CCCCN)NC(=O)[C@H](CC(N)=O)NC(=O)[C@H](CO)NC(=O)[C@H](CCCNC(=N)N)NC(=O)[C@H](CCCNC(=N)N)NC(=O)[C@@H](NC(=O)[C@H](Cc1c[nH]c2ccccc12)NC(=O)[C@H](CCC(=O)O)NC(=O)[C@H](CCCCN)NC(=O)[C@H](CO)NC(=O)[C@H](CCC(=O)O)NC(=O)[C@H](CCC(=O)O)NC(=O)[C@H](CC(C)C)NC(=O)[C@H](CC(=O)O)NC(=O)[C@H](CO)NC(=O)[C@H](CCCCN)NC(=O)[C@@H](NC(=O)[C@H](CCCCN)NC(=O)[C@H](CC(N)=O)NC(=O)[C@H](CC(C)C)NC(=O)[C@@H](NC(=O)[C@@H](NC(=O)[C@H](CO)NC(=O)[C@@H](NC(=O)[C@H](CC(=O)O)NC(=O)[C@@H](NC(=O)[C@@H]1CCCN1C(=O)[C@H](CC(=O)O)NC(=O)[C@H](CC(C)C)NC(=O)[C@H](C)NC(=O)[C@@H](N)C(C)C)[C@@H](C)CC)[C@@H](C)CC)[C@@H](C)CC)C(C)C)[C@@H](C)CC)[C@@H](C)CC)[C@@H](C)CC)[C@@H](C)CC)[C@@H](C)O)[C@@H](C)O)[C@@H](C)CC)C(=O)O", "test system": "water", "endpoint": "solubility", "result": "3400 ± 80 µg/mL"}
{"Molecule": "Cc1cc(N(CCCl)CCCl)ccc1C(=O)O", "test system": "mouse CD2F1", "conditions": "iv, 20 mg/kg of bendamustine", "endpoint": "renal clearance", "result": "0.05 mL/min"}
{"Molecule": "CCCSc1nc(N[C@@H]2C[C@H]2c2ccc(F)c(F)c2)c2nnn([C@@H]3C[C@H](OCCO)[C@@H](O)[C@H]3O)c2n1", "test system": "STEMI patients, plasma", "conditions": "180 mg loading dose, 12 h, added: morphine", "endpoint": "plasma concentration", "result": "371 ± 296 ng/mL"}
